Measurements from different studies.
Parts stem from different laboratories: compare values within a part only.

Series 1
Target: Interferon regulatory factor 7, full length, phosphomimetic (IRF7, Homo sapiens, UniProt Q92985, residues 1-503, S101K/S471D/S472D/S475D/S476D/S477D/S483D/S484D/S487D)
Chain of UniProt Q92985 (whole entry, unmodified, looked up): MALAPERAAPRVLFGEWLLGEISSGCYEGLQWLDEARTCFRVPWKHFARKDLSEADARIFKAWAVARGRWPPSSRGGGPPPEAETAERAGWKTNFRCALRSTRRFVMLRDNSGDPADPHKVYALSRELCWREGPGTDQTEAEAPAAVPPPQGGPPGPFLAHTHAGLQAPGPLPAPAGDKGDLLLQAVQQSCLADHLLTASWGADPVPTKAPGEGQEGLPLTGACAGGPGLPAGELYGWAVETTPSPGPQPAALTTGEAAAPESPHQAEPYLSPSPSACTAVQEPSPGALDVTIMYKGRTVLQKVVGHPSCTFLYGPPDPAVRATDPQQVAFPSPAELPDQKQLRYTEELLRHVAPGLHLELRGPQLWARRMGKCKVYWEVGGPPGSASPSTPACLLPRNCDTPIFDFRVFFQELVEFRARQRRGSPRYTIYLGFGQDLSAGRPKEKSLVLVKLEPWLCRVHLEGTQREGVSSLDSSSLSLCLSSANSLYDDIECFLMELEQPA
Method: protein-binding microarray
Form: double-stranded DNA, one strand shown
Medium: in vitro
Concentration: 250 nM
Setting: 60-bp whole probe
Together with: salmon DNA 0.4 mg/ml
Relative to: random background probes
Direction: higher = stronger binding
Constant ends, left off below: GCCTAGCAC … GTCTTGATTCGCTTGACGCTGCTG
Strand	log fluorescence [z-score]
GACGGTTTCCTTATCCGGACGTGCTAG	3.65
CCTGAAATCTCTTTCCTTACGTGCTAG	0.194
TTAGGTTTCGGGTATGGGTTAGTGCTA	6.51
TCACATTTTAGTTTTCAACTGTGCTAG	1.38
GACGATCTCAGTATAGAGACGTGCTAG	-0.309
GACGAACTGCGACTGGAGACGTGCTAG	-0.554
CCCAATTGTCTTTTCACTTTGTGCTAG	1.08
GACAGTTCCGGTTTCGGGACGTGCTAG	7.76
GACGGACTGCTTTTCCTGAGGTGCTAG	0.0615
GACGGATTGGACACTGGGGACGTGCTA	-0.669
TTAGGTTTCCGACTGCTTTAGTGCTAG	1.45
TACGGTTTCGGTCTCGGGACGTGCTAG	7.73
GGAAAAATGATGTTTTAGGTCGTGCTA	-0.478
TTATGTATCGGGTATCGGTTAGTGCTA	0.796
TACGATCTCAGTCTCGAGACGTGCTAG	0.645
GACGGTCTCGGTATCGGGTCGTGCTAG	2.72
TTAGCACTGCTTTTCCTTTAGTGCTAG	0.236
GACGATATCGACTTTCGGGACGTGCTA	0.245
TTAGATTTCAGTTTCGATCAGTGCTAG	4.96
TTAGGTTTCGACCTTCGGTTAGTGCTA	5.91
TCCCCTCTAGGTTCTCTGAAGGTGCTA	-0.308
GACGGACTGGGGTTTCGCGACGTGCTA	-0.46
TCACCCCTTGCTTTCCAACTGTGCTAG	0.514
GACGATTTCGGGTTTCGATACGTGCTA	6.59
GACGGACTGGACATTGGGGACGTGCTA	-0.561

Series 2
Target: RNA binding protein fox-1 homolog 2, RRM domain, GST-SBP tag (RBFOX2, Homo sapiens, UniProt O43251-10, residues 100-194)
Method: RNA Bind-n-Seq
Form: RNA
Medium: in vitro
Concentration: 365 nM
Setting: natural RNA segment, single round, ends assumed
Relative to: no-protein control
Direction: higher = stronger binding
Constant ends, left off below: GGGAGUUCUACAGUCCGACGAUC … UGGAAUUCUCGGGUGCCAA
Residues (chain): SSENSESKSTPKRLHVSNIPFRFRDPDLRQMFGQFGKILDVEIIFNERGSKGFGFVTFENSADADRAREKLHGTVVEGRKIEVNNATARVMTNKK
Strand	RBNS enrichment (R)
AAACAGCUGCUCCCUCAGCUCAGAGUAGGUUCCAUAUCCUUUUUUUUUGUUUUGUUUUAAUGGCUCAUUUGUAAAAUUGUCCUAAUUUUUCCUAGCUUUCAGCCAUUAGA	0.714
CCUUAAGCUGGAGAGAAAUCAGCAGGAGGACGACUGUGAGCGUACUGGAACUGGAGAAGAGGAGGCCCCGCCCCACCGCUCCGGGAGCUGCUCAUCAGCCGCAACUUCCU	0.237
UUCCAGAAUGCAUUGCACAUCUUUUUAUGAAAUCUAGACUAUGAAAAGGUGAUAAACAUGAAGUAACUGACCCAGAGUUGGUUUAUCUUUGAGUAAACCUUUUUAGUUUU	1.99
GUAGGGAGUGUUUAGUGGACAAUAGUGUAGGUUAUGGAUGGAGGUGUCGGUACUAAAUUGAAUAACGAGUAAAUAAUCUUACUUGGGUAGAGAUGGCCUUUGCCAACAAA	1.31
UGAUGAAGAGAGAGAGGGCCUGCUGGAGAGCAUAGGGUCUGGAACACCAGGCUGAGGUCCUGAUCAGCUUCAAGGAGUAUGCAGGGAGCUGGGCUUCCAGAAAAUGAACA	0.648
UUUGACACUGGUGGUGAGUUCUUUUGAGGCGUGAGAUUUCUAUGUGAAACUGAUAGGUCUUGAUCUGCUUUCUUAGAUCACUGAUUCAGAGCUCAAAGCCCAGGUUCAGG	0.487
CAGACCUAUAUCUGGAGUGAGAGGCCCCCACCCUUGGGCAGAGUCCUGCCUUCUUCCUUGAGGGGCAGUUUGGGAAGGUGAUGGGUAUUAGUGGGGGACUGAGUUCAGGU	0.547
AAGAGCAUGAACGCAUCAAUAGAAAGAACUCGGGGAAACAUCCCAUCAACAGGACUACACACUUGUAUAUACAUUCUUGAGAACACUGCAAUGUGAAAAUCACGUUUGCU	23.7
CCAUUGGCAGGGGCCCAAGAAGUUCAGUGACCAACUGGUCCUUCCACACCACACCAGCUGGUGCUGCCCAUGUCUGUCGAAUCAUAACGGAAAAUUCCCCAGAUCACGUU	0.483
UUCUCGUUUUCAUGAUUCUUGUGAUUUUCCUGGUCGUUGUACCCAGGGCAUGGCAAUGGCCUCAUCCUUAAAAUGUUAUUUCUACUCUCACCCUGAGAGACCUGGGCAGC	0.341
CAUGAAGCCUUGCUGAACUAAGUUUUGUGUGUAUAUAUUUAAAAAAAAAAUCAGUGUUUAAAUAAAGACCUAUGUACUUAAUCCUUUAACUCUGCGGAUAGCAUUUGGUA	1.81
CACAAGAAAAGCACUUGCUGCCAACUGGAUGACUUGAGUUUGUUCCCUGGGACCCAAAUGGAAGGGGAGACUUAUCUCCUGCAAGUUGUCUUUUAACCUGCGCAUGUGUG	2.29

Series 3
Target: PABPC1L2, full length, GST fusion (mouse, UniProt A0ABA7IW68)
Method: RNAcompete
Form: RNA
Medium: in vitro
Concentration: 20 nM
Setting: 7-mer, probes averaged, single round
Relative to: mean of 7-mers
Direction: higher = stronger binding
Residues (chain): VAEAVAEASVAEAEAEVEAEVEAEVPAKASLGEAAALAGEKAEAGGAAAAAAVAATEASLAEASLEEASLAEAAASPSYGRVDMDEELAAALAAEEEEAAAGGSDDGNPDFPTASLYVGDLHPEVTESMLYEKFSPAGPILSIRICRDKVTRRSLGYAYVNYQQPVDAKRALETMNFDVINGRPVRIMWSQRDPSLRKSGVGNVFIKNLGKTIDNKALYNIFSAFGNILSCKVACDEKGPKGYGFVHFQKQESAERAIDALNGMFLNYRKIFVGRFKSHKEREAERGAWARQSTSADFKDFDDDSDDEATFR
Strand	7-mer Z-score
GAGUAUG	-0.106
CCGGAAC	-0.137
ACACCUC	-0.126
AGGUUAA	0.00617
GUGUCAU	-0.251
UGCAAAC	0.158
AAUAAAG	3.07
GAGAAGC	-0.0047
AAUAUAC	0.379
CCACCUU	-0.253
GCGUAUG	-0.316
AGUACUA	-0.141
CCCACAC	-0.376
UUAUUAA	-0.0863
GUGAGGC	-0.15
AAUGCAG	0.314
CACCCUG	-0.345
AGGCAGU	0.1
ACACAGA	0.213
CACCUUG	-0.193
GUUCAUA	-0.287
UCCGCAA	-0.209
CGCUUUA	-0.287
AAAAUGA	4.71
GUCCGCG	-0.362

Series 4
Target: Centromere-binding protein 1, full length, His-tagged (CBF1, Saccharomyces cerevisiae, UniProt P17106, residues 1-351)
Chain of UniProt P17106 (whole entry, looked up): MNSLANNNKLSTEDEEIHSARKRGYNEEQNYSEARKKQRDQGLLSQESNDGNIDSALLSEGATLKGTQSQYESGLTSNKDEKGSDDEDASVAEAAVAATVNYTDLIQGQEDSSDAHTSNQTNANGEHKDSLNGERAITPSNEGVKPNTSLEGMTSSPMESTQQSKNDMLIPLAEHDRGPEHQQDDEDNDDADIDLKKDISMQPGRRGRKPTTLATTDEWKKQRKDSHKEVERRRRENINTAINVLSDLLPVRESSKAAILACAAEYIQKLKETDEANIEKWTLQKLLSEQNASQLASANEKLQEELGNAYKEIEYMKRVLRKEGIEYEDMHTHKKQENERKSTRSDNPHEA
Method: competition protein-binding microarray
Form: double-stranded DNA, one strand shown
Medium: in vitro
Concentration: 2 µM
Setting: whole 60-bp probe, lowest competitor level
Together with: Pho4 competitor, 0.05 µM
Direction: higher = stronger binding
Constant ends, left off below: … GTCTTGATTCGCTTGACGCTGCTG
Strand	fluorescence intensity
AAGAACATTCTTTCTGTCGTGATGGTGTACTGGTGT	83.7 a.u.
CAATAGGGGAAAGCATTCGTGATGGAGACGTATATA	87.2 a.u.
AATCGTTAACACCGTCACCTGTCATTGCGCAGAACT	126 a.u.
AACTGAGGTTTTCGTCACATGTACCGCCCTTTCTTC	593 a.u.
AAAGCGGTAATTTGGATTGTGGGTGCAGATATCTAT	83.3 a.u.
TGCGCAACAACTTGAAATGTGGGTGTATGTCTAGAA	73.1 a.u.
AGCCCGGCCGCTCACCACGTGCTCTCTGTTGTTGCT	1490 a.u.
CTTTCCCGATCTTGAGTAGTGGGTGTAGCACATTTG	69.2 a.u.
CGTCCTAGCGATTGAGCAGTGGGTGCCATGAGGAAG	61 a.u.
AAAGCGGTAATTTGGAGCGTGGGTGCAGATATCTAT	69.5 a.u.
AAATTACTAAGTTGGTCGGTGGGTGACGCCGTATGA	69.1 a.u.
CCATATCAGACTGCCCGCGTGGGTATAATTCTGAGG	96.6 a.u.
GTCTTGTCTCATTGTAAAGTGGGTGTCCCCACTTCA	79.7 a.u.
TGACTCACCCCCGGCCACGTGGCCGGTAGGAGGCCC	745 a.u.
TGATTTCTCTATTTTATATTGCCTATTATTTTTTCA	75.3 a.u.
CGTCCTAGTGATTGTTAGGTGGGTGCCATGAGGAAG	77.8 a.u.
TGCAAGTGAGTATGGCATGTGGTGGTGGGATTAGAG	92 a.u.
TCTGCATATTTGTAAAACGTGCAAAAAAGTAAAGAA	238 a.u.
CTGATTCGTTGGGCTTACGTGATGGTTCCTGGCATT	84.5 a.u.
GCGGTCCCTTCTTCGGGCGTGATGGGCCGCTTTGGC	77 a.u.
TGCGCAACAACTTGTGCGGTGGGTGTATGTCTAGAA	76.6 a.u.
TGTGTAACAGAACCGGACGTGCTTTAGGCTGATGAA	68 a.u.
CGGAAGCGCTCACTTCACGTGCTTTAAAAGCTTCTC	1000 a.u.
TCAAGACCCTTAAAGCACGTTTTTTTCAGGCTCGGC	226 a.u.
CATACCCAACCTTGAAAAGTGGGTGAAGATATTTGT	77.4 a.u.

Mixed results
Strand	target	method	form	relative to	quantity	value
GGAGTGCGCACTCC (dsDNA)	KAT6A 1-85 K24A (Homo sapiens, UniProt Q92794)	ITC	double-stranded DNA, one strand shown	WT	relative binding	32

For quick reference, copied from above (series 3):
Strand	7-mer Z-score
GUGAGGC	-0.15
UCCGCAA	-0.209
CCGGAAC	-0.137
GUCCGCG	-0.362
ACACCUC	-0.126
CCCACAC	-0.376
CCACCUU	-0.253
AGGUUAA	0.00617
GAGUAUG	-0.106
GUUCAUA	-0.287
GAGAAGC	-0.0047
